Results of several laboratories.
Each numbered part is a random draw from the data of one study; scales do not carry over between parts.

Block 1
Target: RNA binding protein fox-1 homolog 2, RRM domain, GST-SBP tag (RBFOX2, Homo sapiens, UniProt O43251-10, residues 100-194)
Method: RNA Bind-n-Seq
Form: RNA
Sample: in vitro
Tested at: 365 nM
Setting: natural RNA segment, single round, ends assumed
Baseline: no-protein control
Direction: higher = stronger binding
All sequences stand within: GGGAGUUCUACAGUCCGACGAUC … UGGAAUUCUCGGGUGCCAA
Construct (chain): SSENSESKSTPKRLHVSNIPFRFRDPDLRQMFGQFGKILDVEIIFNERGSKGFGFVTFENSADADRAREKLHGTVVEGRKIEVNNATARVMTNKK
Oligonucleotide | RBNS enrichment (R)
CCUCCCAUGACCAGGCAGUGGUCACCCCAUGGGACAGGCACAGCUACUUACGCGAACACAGCAGGUUGGUGUGGCUGGCUAACUAGGACCUCUCGAAAGUCUCUGUGGGG | 0.307
CAGACUGUCUCCCAUCUGUUUCUCUCCCUCCUCCCAGAGCUGUGAGGAUGAAGGCAAGACUGAUUGUUCUGAGCUGUUACCUGCCAAGGCUUUUGGAUCAUUUCGGGCCA | 0.601
UUCACUAUUCCAUUUGUGAAGUGUACUUUCAUUCUAAAGCCUCAGUAUAAGGCAUCCUAACUUACAAGAGUAACUUUCCAUGGACAUUUAACAUCCUUCCAAUUUUAUUC | 0.334
UCUAUUGGAGUCCUGAAUAAAUGCUGCUCUUUGGCUUCCAAAACCCUGCUCUCUCUGGCCUUGGGUCAUGAGGGUAUAAGGAAUAAACAUGGUGAGCUUGUUCUCCUUUU | 0.35
CUGAACUGUGUUUACUGGAAAAAUUCAGAGGCCUAAAGUUUAAAAUAAAAUUUACUUCUGAUGUUUUAAUUAAAAUGUUUGCCACAUUAACUUUUCUGAUGCCUUAAAAG | 0.595
UUAAAGUCCUUCAGUAUUUAUGGCCACCCCCACUCCAUGUGAGUCCACUUGGCUCUGUCCUCCCCAUUUUAGCCACCUCUGUAUUUAUGUUGCUUAUUCGUCUGUUUUUA | 0.544
UUGGCAAUGCCAUCAUCUCCUGCCUUCCUCCUGGGCCCUCUCUGCUCUGCGUGUCACCUGUGCUUCGGGCCCUUCCCACAGGACAUUUCUCUAAGAGAACAAUGUGCUAU | 0.346
CAUUUGUUUGCCUUUCUGUUAUUUUUCCCUCUGCUUCUAUGUAUCUCUGUGAAUAAAUCCUUGUUAAGUUAACCCUUUGCUCUUCCUCCCAUGUGUAUUUUCUUACAUAC | 0.974
UCAAGGCCCGGCCCCAUCAGAGGCUGGGGGAGGCGGCACAUUGGCAGUGUGUCACACUGAGCUGGGCACCACAGGCUGCCUCAUGACCCUCCUGUCCAGCAGGUAGUGGG | 0.246
UGCACGCAGUAUCCCACUGUAGAGGAGAGCUCAGAGUGGGGGAGUAGGAGCCCUUGCUUGGGGUACAGGUUUUAUAAAUCUGAGCCUUCAACAGUACCUCUCUUCUAAUG | 0.395
AUUUUGGGAUCUAUACCAAUUAAACAUUUUCAUAGUUCUGCCUAUUGUCCUUCCCUGAGGCUCCAUUGCUGCUUGGUGGCCAUUCUCUGCCUUUUUACAGUCACCUGAAC | 0.864
UAGGUAUUAGUGCUAGUCUCAGAUAGGUGCUUCCCCUGAGGUGCAGGGGAAGACCAAAGUUUGCAACUCGAACUGCUUUCGUCCAUGUUUCUCACAUUGCUGUAUUUUAG | 0.512

Block 2
Target: Fragile X messenger ribonucleoprotein 1, C-terminal low-complexity region (Fmr1, Mus musculus, UniProt P35922)
Method: RNA Bind-n-Seq
Form: RNA
Sample: in vitro
Tested at: 200 nM
Setting: whole 134-nt RNA, ends assumed
Added: 150 mM KCl
Baseline: input library
Direction: higher = stronger binding
All sequences stand within: GGGAGUUCUACAGUCCGACGAUC … UGGAAUUCUCGGGUGUCAAGG
Oligonucleotide | log2 enrichment
ACCAUGCAGGUGGGCAUCUUUGGGAAGUGGGGCAAGGGGAGGAUAGGGAGGGGGGUAACACUUUGGGAACAGGUGGUCCCAGGUCGUUUC | 0.703
GCAGCAAGUAAAAACAAAUGGAAAUGCUUCGGAUAGUGGCAGGGGUGGGGGUUGCUAAGGAAAGGGUGGGAUGGGAGUGGGUAAAGAGUU | 0.442
CUCAAGUCCUGUGCUACACAUCGUAUGUACCGAAUCGGAGGUUUGGUUUUUGGAAAGUAUUAUGUUACGCCGUUCGGAUCUGCACUUCCA | -0.288
CUCAAGUCCUGUGCUACACAUCGUAUGUACCGAAUCGGUGGUUUGGUUUUUGGAAAGUAUUAUGUUACGCCGUUCGGAUCUGCACUUCCA | -0.172
CAAGUCCUGUGCUACACAUCGUAUGUACCGAAUCGGGAGGGAAAGGGAAAAAGGGAAAGUAUUAUGUUACGCCGUUCGGAUCUGCACUUC | 0.582
CCUGUGCUACACAUCGUAUGUACCGAAUCAAAUUUUUAAACCCCCCCAAACCCCCCCAAAAAAGUAUUAUGUUACGCCGUUCGGAUCUGC | -0.075
UGGCCCUGGUGGCAUGCGGGGAGCAAGAGGUGGCCUCAUGGAUCGUGGUGGUCCCGGUGGAAUGUUCAGAGGUGGCCGUGGUGGAGACAG | -0.114
CCUCAAGUCCUGUGCUACACAUCGUAUGUACCGAAUCGGGGCGGCGGGGCGGGAAAGUAUUAUGUUACGCCGUUCGGAUCUGCACUUCCA | 0.97
CUGUGCUACACAUCGUAUGUACCGAAUCGGGCCCCCCGGGGCCCCCCGGGGCCCCCCGGGGAAAGUAUUAUGUUACGCCGUUCGGAUCUG | -1.41
CACAGACAACACGCACCCACACAGACACAGAGGGAAGGGGUUGGGUUGGGGACAGGGUGCACAGCAGGGCGGGGUAGGACCCCAGCCCCU | 1.37
CUGUGCUACACAUCGUAUGUACCGAAUCGGGCCCCCCCGGCCCCCCCGGGGCCCCCCCGGGGAAAGUAUUAUGUUACGCCGUUCGGAUCU | -1.16
CCUCAAGUCCUGUGCUACACAUCGUAUGUACCGAAUCGGGCGGGGCGGGCGGGAAAGUAUUAUGUUACGCCGUUCGGAUCUGCACUUCCA | 1.38
GCAGGAAGUAAAAACAAAUGGAAAUGCUUCGGAAAGUGGCAGGGGUGGGGGUUGCUAAGGAAAGGGUGGGAUGGGAGUGGGUAAAGAGUU | 0.249
CUCAAGUCCUGUGCUACACAUCGUAUGUACCGAAUCGGUUGGGGUUGGUUGGGAAAGUAUUAUGUUACGCCGUUCGGAUCUGCACUUCCA | 0.189

Block 3
Target: Histone acetyltransferase KAT6A, both winged helices, GST fusion (KAT6A, Homo sapiens, UniProt Q92794, residues 1-181)
Method: protein binding microarray
Form: double-stranded DNA, one strand shown
Sample: in vitro
Tested at: not given
Setting: 8-mer, flanks averaged, mean of 2 arrays, mostly near background
Baseline: not given
Direction: higher = stronger binding
Residues (chain): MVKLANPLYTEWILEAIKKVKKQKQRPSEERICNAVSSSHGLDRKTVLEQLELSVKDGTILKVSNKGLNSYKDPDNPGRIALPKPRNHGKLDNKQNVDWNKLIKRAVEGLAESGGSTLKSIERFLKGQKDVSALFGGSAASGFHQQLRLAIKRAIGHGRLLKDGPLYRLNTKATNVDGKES
Oligonucleotide | E-score
AGTCTTGA | 0.0422
CGGACTTA | 0.0856
TGGATCCA | -0.014
AATTGACT | -0.179
ATCGACAG | -0.0357
AAGCAGTA | -0.234
CAACGTCA | -0.0301
CCAATGCG | 0.164
GTACCATA | -0.0287
AGTGTAGG | -0.209
ACTTCGTG | -0.0801
TGCGTTAA | 0.17
CTGTTACC | -0.134
AATAAAGC | -0.0165
CGATAAGA | 0.0358
AAGAAGTA | -0.122

Block 4
Target: Sal-like protein 4, full length isoform B (SALL4, Homo sapiens, UniProt Q9UJQ4-2, residues 1-616)
Method: universal PBM
Form: double-stranded DNA, one strand shown
Sample: in vitro
Tested at: not given
Setting: 8-mer, flanks averaged, mean of replicates
Direction: higher = stronger binding
Oligonucleotide | E-score
ACGCCGAA | -0.174
GGGCAACC | -0.311
ACGTCAGT | -0.166
ACGGCCGG | -0.208
GAGCCGGA | -0.143
ACGGTACC | -0.218
AACACGAC | 0.0344
AGTGATCC | -0.105
AGTCGGGC | -0.317
CACCGTAG | -0.101
CAGAAAAA | 0.0262
GACCCTGA | -0.258
GTATGGCA | 0.0396
ATATGCAG | 0.198
GACGGCCC | -0.408
CCCACTTC | -0.073
CACCGTTA | -0.0109
GACTGGAA | -0.121
AGTAGGAT | -0.00052
GATAAGGC | 0.082
AAGGTCAG | -0.145
ACACACTA | 0.0795
TCCTCTAA | 0.0357
CCCCGCCG | -0.349
ATATGAAA | 0.431

Block 5
Target: Interferon regulatory factor 7, full length, phosphomimetic (IRF7, Homo sapiens, UniProt Q92985, residues 1-503, S471D/S472D/S475D/S476D/S477D/S483D/S484D/S487D)
Method: protein-binding microarray
Form: double-stranded DNA, one strand shown
Sample: in vitro
Tested at: 2200 nM top
Setting: 60-bp whole probe
Added: salmon DNA 0.4 mg/ml
Baseline: random background probes
Direction: higher = stronger binding
All sequences stand within: GCCTAGCAC … GTCTTGATTCGCTTGACGCTGCTG
Target sequence (chain): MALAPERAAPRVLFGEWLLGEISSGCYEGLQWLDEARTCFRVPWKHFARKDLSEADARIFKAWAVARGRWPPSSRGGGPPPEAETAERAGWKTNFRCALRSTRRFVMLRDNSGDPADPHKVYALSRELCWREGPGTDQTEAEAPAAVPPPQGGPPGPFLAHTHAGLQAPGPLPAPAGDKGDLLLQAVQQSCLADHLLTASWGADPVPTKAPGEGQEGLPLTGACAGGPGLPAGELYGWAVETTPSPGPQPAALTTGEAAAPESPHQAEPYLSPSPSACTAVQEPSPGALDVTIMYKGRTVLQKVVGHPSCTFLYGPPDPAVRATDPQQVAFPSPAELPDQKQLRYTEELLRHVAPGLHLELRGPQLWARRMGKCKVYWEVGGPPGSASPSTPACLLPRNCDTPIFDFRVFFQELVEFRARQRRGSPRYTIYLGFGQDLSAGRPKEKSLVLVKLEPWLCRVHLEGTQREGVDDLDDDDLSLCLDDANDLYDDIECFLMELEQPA
Oligonucleotide | fitted relative affinity [z-score]
GACGGTATCGGTCTCGGCACGTGCTAG | -0.0257
TTGGATATCAGACTGGATTAGTGCTAG | 0.00315
GACGGTCTCCTTTTTCTGACGTGCTAG | 1.25
GACGGTATGGGGTTTCGGGACGTGCTA | 1.06
TCATTTTTCCGAGTGAGACTGTGCTAG | 1.47
GTTTCTCTTTCCTTCTTGATGTGCTAG | 6.84
AGATTTTTCTCAACCGTTGTGTGCTAG | 0.716
AATTAAATGATATATATCCATGTGCTA | -0.406
CACTAGTTTCTTTTCTTTTCGTGCTAG | 7.21
TTAGAACTGACTCTCGATTAGTGCTAG | -0.091
GAAATTTTCCCCTACTGTATGTGCTAG | 2.05
TTAGGTTTCGACACTGGGATAGTGCTA | 2.28
GACGAACTGAGTCGCGAGACGTGCTAG | -0.0711
TGCTTTCTCTTTCACTGCTGGTGCTAG | 7.87
CTCTACATGGGTATAGAGTAGTGCTAG | -0.0277
GACGGTTTCGGACTGGAGACGTGCTAG | 3.28
GACGGTATCGGAACTGGGGACGTGCTA | -0.469
TTAGGTTTCGACACTGTGTTAGTGCTA | 2.19
TTAAAACTGAGTATCGATTAGTGCTAG | -0.457
GACGGTATCGGGTCTGGGGACGTGCTA | -0.287
TCATCTCTGCCACTCAGACTGTGCTAG | 1.36
TTAGATTTCGAGACTGGATTAGTGCTA | 0.419
ATATGTATATATGTGTATATGTGCTAG | 1.13
GAGGGTATCGACACTGGGGACGTGCTA | -0.683
TTAGGTATCGACCATCGGTTAGTGCTA | 0.0597

For quick reference, copied from above (block 2):
Oligonucleotide | log2 enrichment
GCAGCAAGUAAAAACAAAUGGAAAUGCUUCGGAUAGUGGCAGGGGUGGGGGUUGCUAAGGAAAGGGUGGGAUGGGAGUGGGUAAAGAGUU | 0.442
CUCAAGUCCUGUGCUACACAUCGUAUGUACCGAAUCGGAGGUUUGGUUUUUGGAAAGUAUUAUGUUACGCCGUUCGGAUCUGCACUUCCA | -0.288
CUCAAGUCCUGUGCUACACAUCGUAUGUACCGAAUCGGUGGUUUGGUUUUUGGAAAGUAUUAUGUUACGCCGUUCGGAUCUGCACUUCCA | -0.172
CAAGUCCUGUGCUACACAUCGUAUGUACCGAAUCGGGAGGGAAAGGGAAAAAGGGAAAGUAUUAUGUUACGCCGUUCGGAUCUGCACUUC | 0.582
CCUGUGCUACACAUCGUAUGUACCGAAUCAAAUUUUUAAACCCCCCCAAACCCCCCCAAAAAAGUAUUAUGUUACGCCGUUCGGAUCUGC | -0.075
UGGCCCUGGUGGCAUGCGGGGAGCAAGAGGUGGCCUCAUGGAUCGUGGUGGUCCCGGUGGAAUGUUCAGAGGUGGCCGUGGUGGAGACAG | -0.114
CCUCAAGUCCUGUGCUACACAUCGUAUGUACCGAAUCGGGGCGGCGGGGCGGGAAAGUAUUAUGUUACGCCGUUCGGAUCUGCACUUCCA | 0.97
CUGUGCUACACAUCGUAUGUACCGAAUCGGGCCCCCCGGGGCCCCCCGGGGCCCCCCGGGGAAAGUAUUAUGUUACGCCGUUCGGAUCUG | -1.41
